Assay results of several laboratories.
Protocols differ between the studies behind these lines. Several values in a cell are separate wells, animals, samples, runs or records. ± marks the error that the study gave. Values after ≈ are worked out from the molar mass of the structure shown.
Chain of UniProt Q8TF76 (whole entry, looked up): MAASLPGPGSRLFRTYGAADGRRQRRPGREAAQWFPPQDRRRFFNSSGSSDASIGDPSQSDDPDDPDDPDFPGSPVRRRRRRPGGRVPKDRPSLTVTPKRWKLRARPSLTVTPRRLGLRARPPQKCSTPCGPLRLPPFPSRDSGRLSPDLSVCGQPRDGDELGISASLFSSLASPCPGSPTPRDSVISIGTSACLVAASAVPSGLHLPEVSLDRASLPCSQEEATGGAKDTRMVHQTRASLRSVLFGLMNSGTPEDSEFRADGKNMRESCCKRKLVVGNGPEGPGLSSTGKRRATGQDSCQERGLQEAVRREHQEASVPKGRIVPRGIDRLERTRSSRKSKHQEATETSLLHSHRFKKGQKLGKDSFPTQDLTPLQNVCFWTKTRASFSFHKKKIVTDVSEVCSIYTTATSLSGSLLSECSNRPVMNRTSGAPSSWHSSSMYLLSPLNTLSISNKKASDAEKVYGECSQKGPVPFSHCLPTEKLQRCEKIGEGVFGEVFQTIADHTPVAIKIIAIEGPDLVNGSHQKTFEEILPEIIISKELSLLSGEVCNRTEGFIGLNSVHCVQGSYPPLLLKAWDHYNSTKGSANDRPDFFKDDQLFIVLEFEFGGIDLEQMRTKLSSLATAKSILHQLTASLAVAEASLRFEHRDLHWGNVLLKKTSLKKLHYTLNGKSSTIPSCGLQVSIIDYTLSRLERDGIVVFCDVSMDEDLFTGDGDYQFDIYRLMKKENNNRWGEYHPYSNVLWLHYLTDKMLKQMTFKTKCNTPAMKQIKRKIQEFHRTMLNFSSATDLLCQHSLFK
Chain of UniProt Q16513 (whole entry, looked up): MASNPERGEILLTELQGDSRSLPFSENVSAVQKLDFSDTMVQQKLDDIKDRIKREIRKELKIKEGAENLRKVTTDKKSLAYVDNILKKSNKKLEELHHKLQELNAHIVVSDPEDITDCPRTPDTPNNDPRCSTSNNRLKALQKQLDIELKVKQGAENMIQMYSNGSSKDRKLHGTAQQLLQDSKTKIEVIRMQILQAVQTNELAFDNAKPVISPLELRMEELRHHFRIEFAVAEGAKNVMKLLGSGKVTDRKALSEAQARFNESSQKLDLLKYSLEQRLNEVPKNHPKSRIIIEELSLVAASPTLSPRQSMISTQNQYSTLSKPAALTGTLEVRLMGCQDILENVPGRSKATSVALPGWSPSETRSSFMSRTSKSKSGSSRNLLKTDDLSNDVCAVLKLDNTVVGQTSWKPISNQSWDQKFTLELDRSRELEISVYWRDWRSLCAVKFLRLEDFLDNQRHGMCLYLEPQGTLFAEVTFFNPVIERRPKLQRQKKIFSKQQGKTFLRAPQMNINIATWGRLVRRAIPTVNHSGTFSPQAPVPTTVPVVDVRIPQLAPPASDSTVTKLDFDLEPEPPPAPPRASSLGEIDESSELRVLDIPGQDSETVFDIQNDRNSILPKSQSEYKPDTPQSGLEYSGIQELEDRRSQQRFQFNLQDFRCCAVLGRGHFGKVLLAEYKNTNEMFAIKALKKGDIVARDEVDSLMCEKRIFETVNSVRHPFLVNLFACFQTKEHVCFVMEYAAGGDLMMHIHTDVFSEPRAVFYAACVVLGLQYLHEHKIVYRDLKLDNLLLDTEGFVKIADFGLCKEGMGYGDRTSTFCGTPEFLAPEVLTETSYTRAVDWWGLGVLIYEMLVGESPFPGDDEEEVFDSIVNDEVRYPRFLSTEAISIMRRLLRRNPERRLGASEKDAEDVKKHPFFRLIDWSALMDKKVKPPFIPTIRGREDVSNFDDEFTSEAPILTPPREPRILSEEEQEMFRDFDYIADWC
Chain of UniProt Q9DB29 (whole entry, looked up): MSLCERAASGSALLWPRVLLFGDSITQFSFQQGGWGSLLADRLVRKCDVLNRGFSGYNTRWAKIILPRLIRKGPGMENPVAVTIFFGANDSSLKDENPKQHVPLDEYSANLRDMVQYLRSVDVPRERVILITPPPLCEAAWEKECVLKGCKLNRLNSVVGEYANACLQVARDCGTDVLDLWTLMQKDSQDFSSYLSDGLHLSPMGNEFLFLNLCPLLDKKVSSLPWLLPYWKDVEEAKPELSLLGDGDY
Chain of UniProt Q9NRH2 (whole entry, looked up): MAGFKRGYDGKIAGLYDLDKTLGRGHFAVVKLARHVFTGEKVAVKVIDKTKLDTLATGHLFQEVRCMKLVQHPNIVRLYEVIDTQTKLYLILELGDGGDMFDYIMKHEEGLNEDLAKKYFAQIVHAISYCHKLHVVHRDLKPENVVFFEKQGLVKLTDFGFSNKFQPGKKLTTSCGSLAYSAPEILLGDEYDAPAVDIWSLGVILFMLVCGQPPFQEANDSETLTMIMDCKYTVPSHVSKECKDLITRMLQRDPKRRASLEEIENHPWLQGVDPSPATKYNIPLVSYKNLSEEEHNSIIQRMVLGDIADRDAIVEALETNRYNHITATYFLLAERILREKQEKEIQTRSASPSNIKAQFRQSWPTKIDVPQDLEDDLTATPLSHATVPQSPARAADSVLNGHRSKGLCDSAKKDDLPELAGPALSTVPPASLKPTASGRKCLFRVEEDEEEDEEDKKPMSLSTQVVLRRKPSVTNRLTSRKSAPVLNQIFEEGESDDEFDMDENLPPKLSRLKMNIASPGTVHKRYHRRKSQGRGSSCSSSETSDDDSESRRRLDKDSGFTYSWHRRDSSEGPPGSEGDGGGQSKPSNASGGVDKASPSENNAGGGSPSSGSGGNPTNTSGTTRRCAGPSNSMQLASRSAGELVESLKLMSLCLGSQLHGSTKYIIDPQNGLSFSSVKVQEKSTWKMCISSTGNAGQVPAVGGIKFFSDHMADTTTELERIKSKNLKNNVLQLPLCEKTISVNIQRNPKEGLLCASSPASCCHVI
Chain of UniProt Q8TD19 (whole entry, looked up): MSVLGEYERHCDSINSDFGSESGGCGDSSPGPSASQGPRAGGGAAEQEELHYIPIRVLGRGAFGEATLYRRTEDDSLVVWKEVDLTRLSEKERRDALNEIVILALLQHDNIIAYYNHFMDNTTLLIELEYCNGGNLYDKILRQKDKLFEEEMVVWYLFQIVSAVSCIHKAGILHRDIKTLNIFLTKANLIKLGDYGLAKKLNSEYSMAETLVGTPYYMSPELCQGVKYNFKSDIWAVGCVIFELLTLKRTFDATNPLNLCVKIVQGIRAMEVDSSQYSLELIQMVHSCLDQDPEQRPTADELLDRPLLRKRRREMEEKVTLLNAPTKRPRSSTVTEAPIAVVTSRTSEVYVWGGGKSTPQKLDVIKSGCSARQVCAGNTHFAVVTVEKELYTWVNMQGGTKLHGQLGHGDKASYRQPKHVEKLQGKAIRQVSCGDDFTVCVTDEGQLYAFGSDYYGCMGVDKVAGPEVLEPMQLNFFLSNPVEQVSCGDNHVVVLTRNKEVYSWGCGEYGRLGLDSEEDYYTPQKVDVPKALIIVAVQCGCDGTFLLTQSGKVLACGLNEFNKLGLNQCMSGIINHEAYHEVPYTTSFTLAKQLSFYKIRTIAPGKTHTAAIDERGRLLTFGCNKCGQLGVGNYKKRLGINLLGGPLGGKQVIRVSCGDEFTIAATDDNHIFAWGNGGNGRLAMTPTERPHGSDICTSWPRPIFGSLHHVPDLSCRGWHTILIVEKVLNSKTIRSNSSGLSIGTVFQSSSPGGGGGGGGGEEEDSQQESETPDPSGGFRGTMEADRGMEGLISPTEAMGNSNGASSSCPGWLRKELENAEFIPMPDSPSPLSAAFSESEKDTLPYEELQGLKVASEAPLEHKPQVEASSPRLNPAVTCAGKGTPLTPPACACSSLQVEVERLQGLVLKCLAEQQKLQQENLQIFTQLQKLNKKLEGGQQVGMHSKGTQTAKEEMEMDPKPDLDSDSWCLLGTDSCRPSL

For `O=C1NC(=O)c2c1c1cc(F)c[n+]3c1c1c2c2cc(O)ccc2[n]1[Ru-4]312([N]=C=S)[S+]3CC[S+]1CC[S+]2CC3` (stereo not drawn), the remaining activity was 33% (PKN2 (Homo sapiens, UniProt Q16513); enzyme activity; 100 nM, human enzyme, added: 10 µM ATP; reference: untreated).
`CC(C)[C@H]1NC(=O)C[C@H]2/C=C/CCSSC[C@@H](NC1=O)C(=O)N[C@H](Cc1cccc3ccccc13)C(=O)NCC(=O)O2` has an inhibition of 5.8% (HASPIN (Homo sapiens, UniProt Q8TF76); enzyme activity, inhibitor; 10 µM).
The MIC50 of `COc1ccc(C2=[N+]([O-])c3ccccc3N3CC(C)(C)CN=C23)cc1` is reported as 2 µg/mL (≈ 5.96 µM) (Clostridioides difficile; microbial growth).
For `CC(=O)O[C@@H]1C[C@@H](C)O[C@H]2O[C@@H]3C[C@@H]4CC[C@@H]5[C@H](CC[C@]6(C)[C@@H](C7=CC(=O)OC7)CC[C@]56O)[C@@]4(C)C[C@H]3O[C@]21O`, the IC50 was 280 nM and 140 nM (Schistosoma mansoni; viability, microscopic viability score; adult worms; 72 h).
Under “MIC fold change”, `CC[C@H](C)CCCCC(=O)N[C@@H](CCN)C(=O)N[C@H](C(=O)N[C@@H](CCN)C(=O)N[C@H]1CCNC(=O)[C@H]([C@@H](C)O)NC(=O)[C@H](CCN)NC(=O)[C@H](CCN)NC(=O)[C@H](CC(C)C)NC(=O)[C@@H](CC(C)C)NC(=O)[C@H](CCN)NC1=O)[C@@H](C)O` is recorded as 2.47 (Escherichia coli; daily serial passaging; ATCC 8739; highest sub-MIC, 6 days; reference: initial MIC).
`COc1ccccc1-c1n[nH]c2nc(NC3CCN(C(=O)Cc4ccc(F)cc4F)CC3)ncc12` has a relative abundance of 0.76 (bead binding, competition bead pull-down, item: LINJ.35.3110; Leishmania donovani extract; 10 µM; reference: vehicle).
For `Cc1cc(C(=O)Nc2nc3cccc(C)c3n2[C@H]2CCCCN(C(=O)/C=C/CN(C)C)C2)ccn1`, the survival was 80.8% and 80.1% and 86.3% and 80.2% and 101% and 77.5% (Trypanosoma brucei brucei; 2T1 wild type; 0.01029 µM).
The mortality of `CN(C)c1nc(NCc2ccc(F)c(C(F)(F)F)c2)c(/N=N/c2ccc(Cl)cc2)c(N(C)C)n1` is reported as 100% (Ostrinia furnacalis; leaf dipping; 500 mg/L, 96 h).
For `CC(C)(C)C(=O)OCOP(=O)(OCOC(=O)C(C)(C)C)C1CCCN(O)C1=O` (stereo not drawn), the log LC50 was greater than -4 log M (PC-3).
With `CN1CCN(c2cccc(-c3ccc4ncnc(Nc5ccc(OCc6cccc(F)c6)c(Cl)c5)c4c3)c2)CC1` the inhibition was 72% (Trypanosoma cruzi; intracellular amastigote growth, β-galactosidase CPRG; 3T3, Tulahuen, β-galactosidase-expressing; 10 µM, 96 h).
The mortality of `CN(C)c1nc(NCc2ccc(F)cc2)c(/N=N/c2ccc(Cl)cc2)c(N(C)C)n1` is reported as 100% (Ostrinia furnacalis; leaf dipping; 200 mg/L, 96 h).
For `CC[C@H](C)[C@@H]1NC(=O)[C@H](CO)NC(=O)C(C)(CCCCN)NC(=O)[C@@H]2CSSC[C@@H](C(=O)N[C@@H](Cc3ccc(O)cc3)C(N)=O)NC(=O)[C@H](CCCCN)NC(=O)[C@@H]3CSSC[C@H](NC(=O)[C@H](CCCNC(=N)N)NC(=O)C(C)(CC(C)C)NC(=O)[C@H](CC(=O)O)NC(=O)[C@H](CC(=O)O)NC(=O)[C@H](CCC(=O)O)NC(=O)[C@H](CC(N)=O)NC(=O)[C@H](Cc4c[nH]c5ccccc45)NC(=O)C(C)(CC)NC(=O)CNC(=O)[C@H](CC(N)=O)NC(=O)[C@@H](NC(=O)CNC(=O)[C@H](Cc4ccccc4)NC(=O)CN)CSSC[C@H](NC(=O)[C@H](Cc4ccc(O)cc4)NC(=O)CNC(=O)CNC(=O)[C@H](CCCCN)NC(=O)[C@H](Cc4ccc(O)cc4)NC(=O)[C@H]4CCCN4C(=O)[C@@H]4CCCN4C1=O)C(=O)N[C@@H](C)C(=O)N[C@@H](CCCCN)C(=O)N1CCC[C@@H]1C(=O)NCC(=O)N[C@@H](Cc1ccccc1)C(=O)N[C@@H](C(C)C)C(=O)N3)C(=O)N[C@@H](Cc1c[nH]cn1)C(=O)NC(C)(C)C(=O)N[C@@H](Cc1c[nH]cn1)C(=O)N2` (stereo partly drawn), the MBC was 2 µM (≈ 8.92 µg/mL) (Streptococcus pneumoniae; D39; 24 h, 37 °C, 99.9% killing).
`CS(C)(=O)=Nc1ccc(-c2ccc(-c3nc4cc(O[C@@H]5CO[C@H]6[C@@H]5OC[C@H]6O)[nH]c4cc3F)cc2)cc1` has an inhibition of -11% (NEK9 (Homo sapiens, UniProt Q8TD19); enzyme activity, inhibitor; 10 µM).
With `CC(C)[C@H]1NC(=O)[C@H](Cc2ccccc2)NC(=O)[C@@H](C(C)C)NC(=O)[C@@H](C)NC(=O)[C@H](CO)NC(=O)[C@@H](Cc2c(-c3ccc(-c4cccc5ccccc45)cc3)[nH]c3ccccc23)NC(=O)[C@@H](CO)NC1=O` the MIC90 was 40.8 µM (≈ 39.9 µg/mL) (Mycobacterium marinum).
Under “geometric mean MIC”, `CC(C)C[C@H](NC(=O)[C@@H](N)CO)C(=O)N[C@@H](Cc1c[nH]c2ccccc12)C(=O)N[C@@H](CCC(=O)O)C(=O)N[C@@H](CC(N)=O)C(=O)N[C@@H](Cc1ccccc1)C(=O)N[C@@H](CCCCN)C(=O)N[C@@H](CC(N)=O)C(=O)N[C@@H](C)C(=O)NCC(=O)N[C@@H](CCCCN)C(=O)N[C@@H](CCCCN)C(N)=O` is recorded as 256 µM (Gram-negative bacteria).
With `CC1(C)C(NC(=O)C(=NOC2(C(=O)O)CC2)c2csc(N)n2)C(=O)N1OS(=O)(=O)O` (stereo not drawn) the survival rate was 50% (Klebsiella pneumoniae; ATCC BAA-2146, ESBL and NDM-1 producing, ICR mice, systemic lethal infection; 20 mg/kg).
With `COc1ccccc1-c1n[nH]c2nc(N[C@H]3CC[C@H](NS(=O)(=O)CC(C)C)CC3)ncc12` the relative abundance was 0.95 (bead binding, competition bead pull-down, item: LINJ.31.1150; Leishmania donovani extract; 10 µM; reference: vehicle).
`FC(F)(F)c1cccc(CNc2nc(NC3CCN(Cc4ccccc4)CC3)c3nc[nH]c3n2)c1` — result for “mRNA fold change”: 1.05 (Cryptococcus neoformans; RNA-seq, item: KCS1 (CNAG_02897); 48 µg/mL, 3 h; reference: untreated).
For `CN(CCO)CCO.O=C(O)C(Cl)Cl`, the inhibition was -60% (Solanum nigrum; herbicidal activity; 15 mg/mL, 21 days, post-emergence greenhouse).
`CC(C)CC(O)(CC(C)C)c1cn(C(=O)N2CCCC2)nn1`: “median SILAC activity ratio” 1.17 (Isoamyl acetate-hydrolyzing esterase 1 homolog (Iah1, Mus musculus, UniProt Q9DB29); probe labelling, inhibitor, competitive ABPP-SILAC, item: Iah1; mouse T cells; concentration not given, 4 h, protein level; reference: treated over DMSO cells, lower = stronger inhibition).
`O=C1NC2(CC2)COc2ncc(F)cc2[C@H]2COCCN2c2ccn3ncc1c3n2`: “serum total protein” 57.6 ± 1.7 g/L (Sprague-Dawley rat, male, serum; oral, 10 mg/kg/day, end of recovery, 4-week subacute toxicity).
`CC(C)[C@H]1NC(=O)[C@H](Cc2ccccc2)NC(=O)[C@@H](C)NC(=O)[C@@H](C)NC(=O)[C@H](CO)NC(=O)[C@@H](Cc2c(-c3ccc(-c4ccc5ccccc5c4)cc3)[nH]c3ccccc23)NC(=O)[C@@H](CO)NC1=O` gave an MIC90 of greater than 100 µM (Mycobacterium marinum).
The inhibition of `CN(C)[C@H]1C[C@@]23CC[C@@]4(O2)C(=CC[C@]2(C)[C@@H](c5ccc6ccncc6c5)CC[C@H]24)C=C3[C@@H](O)[C@@H]1O` is reported as 1.9% (SNRK (Homo sapiens, UniProt Q9NRH2); ATP probe labelling, inhibitor, KiNativ profiling; 1 µM).
`CCOC(=O)C1(Cc2ccccc2)Oc2cc(F)ccc2N(Cc2ccccc2)C1=O` (stereo not drawn) — result for “fresh weight inhibition”: 42.8 ± 2.11% (Setaria viridis; greenhouse; postemergence, 150 g ai/ha, 21 days).
For `O=c1n(CCNCCOS(=O)(=O)c2ccccc2)c(=O)n(S(=O)(=O)c2ccccc2)c(=O)n1S(=O)(=O)c1ccccc1`, the MLC was 8 ± 2 µg/mL (Proteus mirabilis; broth microdilution).
For `CC[C@H](C)[C@@H]1NC(=O)[C@H](CO)NC(=O)CC(CCCCN)NC(=O)[C@@H]2CSSC[C@@H](C(=O)N[C@@H](Cc3ccc(O)cc3)C(N)=O)NC(=O)[C@H](CCCCN)NC(=O)[C@@H]3CSSC[C@H](NC(=O)[C@H](CCCNC(=N)N)NC(=O)CC(CC(C)C)NC(=O)[C@H](CC(=O)O)NC(=O)[C@H](CC(=O)O)NC(=O)[C@H](CCC(=O)O)NC(=O)[C@H](CC(N)=O)NC(=O)[C@H](Cc4c[nH]c5ccccc45)NC(=O)[C@@H]4CCCN4C(=O)CNC(=O)[C@H](CC(N)=O)NC(=O)[C@@H](NC(=O)CNC(=O)[C@H](Cc4ccccc4)NC(=O)CN)CSSC[C@H](NC(=O)[C@H](Cc4ccc(O)cc4)NC(=O)CNC(=O)CNC(=O)[C@H](CCCCN)NC(=O)[C@H](Cc4ccc(O)cc4)NC(=O)CNC(=O)[C@H](CCCCN)NC1=O)C(=O)N[C@@H](C)C(=O)N[C@@H](CCCCN)C(=O)NCC(=O)NCC(=O)N[C@@H](Cc1ccccc1)C(=O)N[C@@H](C(C)C)C(=O)N3)C(=O)N[C@@H](Cc1c[nH]cn1)C(=O)NC(CC(N)=O)CC(=O)N[C@@H](Cc1c[nH]cn1)C(=O)N2` (stereo partly drawn), the MBC was 8 µM (≈ 35.6 µg/mL) (Streptococcus pneumoniae; D39; 24 h, 37 °C, 99.9% killing).
`CN1CCCCC1C(=O)NC(Cc1ccc(-c2ccccc2)cc1)B(O)O` (stereo not drawn) has an IC50 of 34 nM (Plasmodium vivax; ex vivo; Brazilian field isolates; median).
For `CC[C@H](C)[C@H](NC(=O)[C@H](CO)NC(=O)[C@H](Cc1ccc(O)cc1)NC(=O)[C@H](Cc1ccc(O)cc1)NC(=O)[C@H](CC(N)=O)NC(=O)CNC(=O)[C@H](CO)NC(=O)[C@H](Cc1ccc(O)cc1)NC(=O)[C@H](CO)NC(=O)[C@H](CO)NC(=O)[C@H](CC(N)=O)NC(=O)COCCOCCNC(=O)CN1CCN(CC(=O)O)CCN(CC(=O)O)CCN(CC(=O)O)CC1)C(=O)N[C@@H](CC(C)C)C(N)=O` [copper-64 labelled], the tumour uptake was 10.4 %ID/mL (dynamic PET; mouse, tamoxifen-induced PDAC, blood; intravenous, 0.1 µg/mouse, 4.5 min).
For `CC(=O)CCC1C(=O)NC(C(C)C)C(=O)NC(Cc2cc(O)cc(F)c2)C(=O)N2CCCC(N2)C(=O)OC(C(C)=CC=CC(=O)N2CCCCO2)CC=CC=CC(O)C(C)C1O` (stereo not drawn), the EC50 was 15 ± 1 nM (Hepatitis C virus; viral replication; Huh7, Con1 replicon; 5% fetal bovine serum).
`CC(C)[C@H]1NC(=O)[C@H](Cc2ccccc2)NC(=O)[C@@H](C(C)C)NC(=O)[C@@H](C)NC(=O)[C@H](CO)NC(=O)[C@@H](Cc2c(-c3ccc(-c4ccccc4)cc3)[nH]c3ccccc23)NC(=O)[C@@H](CO)NC1=O` has an MIC90 of 53.8 µM (≈ 50 µg/mL) (Mycobacterium marinum).

Some of these lines once more:
With `COc1ccccc1-c1n[nH]c2nc(N[C@H]3CC[C@H](NS(=O)(=O)CC(C)C)CC3)ncc12` the relative abundance was 0.95 (bead binding, competition bead pull-down, item: LINJ.31.1150; Leishmania donovani extract; 10 µM; reference: vehicle).
`CC(C)[C@H]1NC(=O)[C@H](Cc2ccccc2)NC(=O)[C@@H](C(C)C)NC(=O)[C@@H](C)NC(=O)[C@H](CO)NC(=O)[C@@H](Cc2c(-c3ccc(-c4ccccc4)cc3)[nH]c3ccccc23)NC(=O)[C@@H](CO)NC1=O` has an MIC90 of 53.8 µM (≈ 50 µg/mL) (Mycobacterium marinum).
`CCOC(=O)C1(Cc2ccccc2)Oc2cc(F)ccc2N(Cc2ccccc2)C1=O` (stereo not drawn) — result for “fresh weight inhibition”: 42.8 ± 2.11% (Setaria viridis; greenhouse; postemergence, 150 g ai/ha, 21 days).
